{"data": "Published values from different studies", "Formate-nitrite transporter": "Formate-nitrite transporter (Plasmodium falciparum, UniProt O77389)", "Uncharacterized hydrolase SAUSA300_2518": "Uncharacterized hydrolase SAUSA300_2518 (Staphylococcus aureus, UniProt Q2FDS6)", "SIRT5": "NAD-dependent protein deacylase sirtuin-5, mitochondrial (SIRT5, Homo sapiens, UniProt Q9NXA8)", "lasR": "Transcriptional activator protein LasR (lasR, Pseudomonas aeruginosa, UniProt P25084)", "blaNDM-1": "Metallo-beta-lactamase type 2 (blaNDM-1, Klebsiella pneumoniae, UniProt C7C422)", "CYP2C9": "Cytochrome P450 2C9 (CYP2C9, Homo sapiens, UniProt P11712)", "note": "Protocols differ between the studies behind these lines. ± gives the spread as reported.", "UniProt O77389, sequence (whole entry, looked up)": "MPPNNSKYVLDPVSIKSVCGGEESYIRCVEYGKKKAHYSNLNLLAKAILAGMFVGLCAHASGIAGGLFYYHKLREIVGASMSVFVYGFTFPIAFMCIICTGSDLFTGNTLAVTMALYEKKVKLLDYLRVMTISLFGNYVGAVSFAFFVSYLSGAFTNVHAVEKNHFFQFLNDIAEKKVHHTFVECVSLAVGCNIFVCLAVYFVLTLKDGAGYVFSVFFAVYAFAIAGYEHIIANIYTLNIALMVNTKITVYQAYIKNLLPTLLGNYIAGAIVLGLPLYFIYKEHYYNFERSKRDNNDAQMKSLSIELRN", "UniProt P25084, sequence (whole entry, looked up)": "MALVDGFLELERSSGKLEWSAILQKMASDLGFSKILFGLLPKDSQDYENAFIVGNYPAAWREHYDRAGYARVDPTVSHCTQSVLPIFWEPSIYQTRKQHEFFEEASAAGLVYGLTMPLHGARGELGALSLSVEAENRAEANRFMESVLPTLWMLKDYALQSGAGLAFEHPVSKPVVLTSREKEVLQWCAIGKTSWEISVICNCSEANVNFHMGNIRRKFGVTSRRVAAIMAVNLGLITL", "UniProt Q9NXA8, sequence (whole entry, looked up)": "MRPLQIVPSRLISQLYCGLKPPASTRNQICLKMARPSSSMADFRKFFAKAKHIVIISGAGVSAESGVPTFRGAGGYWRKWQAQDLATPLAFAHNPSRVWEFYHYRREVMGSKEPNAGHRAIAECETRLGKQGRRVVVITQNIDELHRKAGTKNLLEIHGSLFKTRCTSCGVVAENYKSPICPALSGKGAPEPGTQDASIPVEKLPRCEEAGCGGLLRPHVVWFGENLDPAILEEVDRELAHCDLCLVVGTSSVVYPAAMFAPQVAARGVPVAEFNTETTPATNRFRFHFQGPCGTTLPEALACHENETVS", "UniProt C7C422, sequence (whole entry, looked up)": "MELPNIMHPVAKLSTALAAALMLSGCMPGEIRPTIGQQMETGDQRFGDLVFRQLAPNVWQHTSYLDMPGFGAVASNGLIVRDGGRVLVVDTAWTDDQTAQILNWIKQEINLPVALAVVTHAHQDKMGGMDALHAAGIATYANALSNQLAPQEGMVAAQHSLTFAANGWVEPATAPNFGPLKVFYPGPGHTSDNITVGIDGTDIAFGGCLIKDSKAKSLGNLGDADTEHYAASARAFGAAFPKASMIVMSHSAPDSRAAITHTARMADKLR", "UniProt Q2FDS6, sequence (whole entry, looked up)": "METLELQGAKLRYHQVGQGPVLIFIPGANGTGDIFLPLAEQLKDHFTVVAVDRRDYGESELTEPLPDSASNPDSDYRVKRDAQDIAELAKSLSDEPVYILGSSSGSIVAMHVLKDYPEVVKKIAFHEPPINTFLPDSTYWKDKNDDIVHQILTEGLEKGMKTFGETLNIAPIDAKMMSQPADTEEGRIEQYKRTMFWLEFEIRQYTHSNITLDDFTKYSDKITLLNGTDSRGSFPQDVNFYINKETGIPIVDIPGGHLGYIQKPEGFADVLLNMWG", "UniProt P08913, sequence (whole entry, looked up)": "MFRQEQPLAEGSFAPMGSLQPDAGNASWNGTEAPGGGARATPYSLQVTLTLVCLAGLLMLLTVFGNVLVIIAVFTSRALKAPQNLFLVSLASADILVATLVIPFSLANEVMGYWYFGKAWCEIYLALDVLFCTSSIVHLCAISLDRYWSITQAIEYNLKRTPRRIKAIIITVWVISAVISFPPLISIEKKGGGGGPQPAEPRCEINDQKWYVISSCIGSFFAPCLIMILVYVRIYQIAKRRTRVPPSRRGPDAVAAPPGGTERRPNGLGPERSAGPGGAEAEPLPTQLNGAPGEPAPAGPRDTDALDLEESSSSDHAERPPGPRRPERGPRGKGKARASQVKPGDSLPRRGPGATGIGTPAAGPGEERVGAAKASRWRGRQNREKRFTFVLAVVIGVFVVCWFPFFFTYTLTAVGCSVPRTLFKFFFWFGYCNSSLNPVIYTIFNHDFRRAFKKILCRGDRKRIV", "UniProt P42336, sequence (whole entry, unmodified, looked up)": "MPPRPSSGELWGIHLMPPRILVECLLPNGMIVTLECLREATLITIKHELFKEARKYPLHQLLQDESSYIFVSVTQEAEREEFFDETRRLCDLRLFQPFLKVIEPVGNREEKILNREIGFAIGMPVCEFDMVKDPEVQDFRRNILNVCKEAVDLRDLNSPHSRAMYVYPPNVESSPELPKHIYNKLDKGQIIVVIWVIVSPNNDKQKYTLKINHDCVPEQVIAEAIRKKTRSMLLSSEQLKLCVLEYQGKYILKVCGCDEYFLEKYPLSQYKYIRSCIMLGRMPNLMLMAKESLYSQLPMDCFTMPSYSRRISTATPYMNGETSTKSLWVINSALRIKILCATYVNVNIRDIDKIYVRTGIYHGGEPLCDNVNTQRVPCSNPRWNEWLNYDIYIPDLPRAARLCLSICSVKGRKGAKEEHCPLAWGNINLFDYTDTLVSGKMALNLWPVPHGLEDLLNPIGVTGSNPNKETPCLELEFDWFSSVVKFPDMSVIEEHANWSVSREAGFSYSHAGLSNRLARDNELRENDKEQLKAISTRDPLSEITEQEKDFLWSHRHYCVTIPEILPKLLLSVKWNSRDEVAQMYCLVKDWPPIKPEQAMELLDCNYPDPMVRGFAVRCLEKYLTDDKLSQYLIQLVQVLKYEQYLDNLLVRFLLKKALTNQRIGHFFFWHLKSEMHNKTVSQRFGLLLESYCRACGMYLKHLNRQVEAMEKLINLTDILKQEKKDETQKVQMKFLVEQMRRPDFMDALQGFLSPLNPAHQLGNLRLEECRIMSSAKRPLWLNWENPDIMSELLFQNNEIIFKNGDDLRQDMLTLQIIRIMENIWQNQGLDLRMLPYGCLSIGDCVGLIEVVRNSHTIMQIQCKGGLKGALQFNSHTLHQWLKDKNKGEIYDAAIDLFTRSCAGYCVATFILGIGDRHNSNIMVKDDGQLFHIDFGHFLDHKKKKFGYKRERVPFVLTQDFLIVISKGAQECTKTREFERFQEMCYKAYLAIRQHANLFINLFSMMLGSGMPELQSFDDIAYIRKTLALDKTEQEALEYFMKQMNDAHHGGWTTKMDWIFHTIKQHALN", "UniProt P21397, sequence (whole entry, looked up)": "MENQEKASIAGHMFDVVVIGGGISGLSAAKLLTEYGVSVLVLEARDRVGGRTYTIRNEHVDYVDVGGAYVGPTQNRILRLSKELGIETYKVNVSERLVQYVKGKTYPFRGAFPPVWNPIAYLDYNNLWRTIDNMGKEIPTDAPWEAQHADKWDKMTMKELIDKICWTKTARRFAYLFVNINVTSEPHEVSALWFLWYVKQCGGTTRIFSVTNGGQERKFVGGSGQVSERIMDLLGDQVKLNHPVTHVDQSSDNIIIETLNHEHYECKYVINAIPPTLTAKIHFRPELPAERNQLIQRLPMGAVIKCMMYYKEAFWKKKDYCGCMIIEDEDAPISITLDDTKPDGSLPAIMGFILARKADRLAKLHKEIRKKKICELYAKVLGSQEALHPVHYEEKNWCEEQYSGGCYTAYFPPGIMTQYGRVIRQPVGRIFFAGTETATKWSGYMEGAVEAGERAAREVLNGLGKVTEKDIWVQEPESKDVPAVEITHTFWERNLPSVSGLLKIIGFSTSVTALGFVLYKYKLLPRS", "UniProt P33261, sequence (whole entry, looked up)": "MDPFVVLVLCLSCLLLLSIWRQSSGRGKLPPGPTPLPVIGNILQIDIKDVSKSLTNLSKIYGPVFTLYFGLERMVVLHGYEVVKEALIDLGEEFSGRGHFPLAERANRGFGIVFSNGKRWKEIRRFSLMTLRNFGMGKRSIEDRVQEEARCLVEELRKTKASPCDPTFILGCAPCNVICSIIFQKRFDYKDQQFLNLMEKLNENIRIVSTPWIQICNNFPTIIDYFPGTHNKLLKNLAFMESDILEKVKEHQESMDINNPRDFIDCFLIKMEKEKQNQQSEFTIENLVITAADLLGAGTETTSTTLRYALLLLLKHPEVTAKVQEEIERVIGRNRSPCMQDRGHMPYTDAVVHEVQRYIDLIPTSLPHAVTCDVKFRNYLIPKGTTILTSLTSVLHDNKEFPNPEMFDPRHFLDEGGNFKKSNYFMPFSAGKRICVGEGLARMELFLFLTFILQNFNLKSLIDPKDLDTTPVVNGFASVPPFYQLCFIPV", "UniProt P19492, sequence (whole entry, looked up)": "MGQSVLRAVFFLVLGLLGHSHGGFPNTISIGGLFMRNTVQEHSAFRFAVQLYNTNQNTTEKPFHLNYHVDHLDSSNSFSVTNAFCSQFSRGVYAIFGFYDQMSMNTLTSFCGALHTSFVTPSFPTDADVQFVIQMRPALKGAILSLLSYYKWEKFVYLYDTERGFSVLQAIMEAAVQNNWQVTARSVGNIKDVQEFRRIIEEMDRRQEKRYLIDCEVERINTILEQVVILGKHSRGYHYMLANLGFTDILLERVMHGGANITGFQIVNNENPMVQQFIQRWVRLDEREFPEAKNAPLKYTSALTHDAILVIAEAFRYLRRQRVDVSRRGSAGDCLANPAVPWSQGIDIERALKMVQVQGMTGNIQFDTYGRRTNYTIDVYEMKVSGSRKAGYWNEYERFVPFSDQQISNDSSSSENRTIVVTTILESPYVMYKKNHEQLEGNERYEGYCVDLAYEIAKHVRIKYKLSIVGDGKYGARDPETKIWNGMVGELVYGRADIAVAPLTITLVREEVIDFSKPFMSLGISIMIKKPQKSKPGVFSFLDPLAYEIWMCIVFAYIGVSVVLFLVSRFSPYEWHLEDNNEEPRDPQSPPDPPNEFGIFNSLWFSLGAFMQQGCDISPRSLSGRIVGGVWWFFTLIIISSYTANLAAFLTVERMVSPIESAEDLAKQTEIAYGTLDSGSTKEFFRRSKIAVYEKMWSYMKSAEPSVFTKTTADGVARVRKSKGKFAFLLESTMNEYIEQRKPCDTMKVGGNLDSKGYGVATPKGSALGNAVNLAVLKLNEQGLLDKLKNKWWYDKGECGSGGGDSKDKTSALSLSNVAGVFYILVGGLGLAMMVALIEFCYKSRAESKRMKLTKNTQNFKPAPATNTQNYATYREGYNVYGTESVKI"}
{"Compound": "COCCCNc1ccc(C(=O)C=C(O)C(F)(F)C(F)(F)F)cn1", "target": "Formate-nitrite transporter", "test": "L-lactate transport, inhibitor, fluorescence", "test system": "yeast", "conditions": "pH 6.8, with: L-lactate 1 mM", "IC50": "0.059 ± 0.01 µM"}
{"Compound": "C[C@H](NCc1ccc(-c2ccc(C(F)(F)F)cc2)cc1)C(N)=O", "target": "Amine oxidase [flavin-containing] A (MAOA, Homo sapiens, UniProt P21397)", "test": "enzyme activity, inhibitor, fluorescence", "IC50": "> 100 µM"}
{"Compound": "CCCCCCCCn1nc(OC)oc1=O", "target": "Uncharacterized hydrolase SAUSA300_2518", "test": "enzyme activity, inhibitor", "test system": "USA300", "conditions": "1 h preincubation, enzyme 0.5 nM, with: 20 µM 4-MU octanoate", "IC50": "32.7 µM"}
{"Compound": "O=C(NCCCC[C@H](NS(=O)(=O)c1cccc(F)c1)C(=O)N[C@@H](Cc1c[nH]c2ccccc12)C(=O)NC1CCC1)c1cncc(OS(=O)(=O)F)c1", "target": "SIRT5", "test": "inhibitor, fluorogenic", "conditions": "24 h preincubation, His-tagged enzyme 150 nM, with: NAD+ 500 µM", "IC50": "10 ± 7 µM"}
{"Compound": "COC(=O)Cc1cc2c(cc1C(=O)c1cccc(Br)c1)OCO2", "target": "Gria2/Glutamate receptor 3 (Rattus norvegicus, UniProt P19491+P19492)", "test": "ion current, antagonist, patch clamp", "IC50": "5.37 µM"}
{"Compound": "O=C(CCc1ccc(Br)cc1)N[C@H]1CCOC1=O", "target": "lasR", "test": "reporter gene, antagonist", "test system": "Escherichia coli lasI-lacZ reporter", "conditions": "with: 5 nM OdDHL", "IC50": "0.27 µM"}
{"Compound": "O=P(O)(O)C(Nc1ccc(Cl)cc1)P(=O)(O)O", "target": "polyphosphate kinase 2 (Cytophaga hutchinsonii, UniProt A0A6N4SMB5)", "test": "enzyme activity, inhibitor, HPLC", "conditions": "30 min, 37 °C, with: 0.04 mM ADP and 0.3 mM polyP", "IC50": "337 µM"}
{"Compound": "CN(C(=O)c1ccn2ncc(-c3ccc(C(N)=O)cc3)c2c1)c1ccc(C#N)cn1", "target": "Phosphatidylinositol 4-kinase (Cryptosporidium parvum, UniProt Q5CVD3, H1037Y)", "test": "inhibitor", "IC50": "0.011 ± 0.0019 µM"}
{"Compound": "O=C(O)CCn1c(=O)oc2cc(Cl)c(Cl)cc21", "target": "Alpha-1B adrenergic receptor (ADRA1B, Homo sapiens, UniProt P35368)", "test": "antagonist", "conditions": "median value", "IC50": "> 25.1 µM"}
{"Compound": "CC(C)C[C@@H]1NC(=O)[C@@H]2CCCN2C(=O)[C@@H](CS)NC(=O)[C@H](Cc2ccc(O)cc2)NC(=O)[C@@H](CCCNC(=N)N)NC(=O)[C@@H](CCCNC(=N)N)NC(=O)[C@H](CCC(=O)O)NC(=O)[C@@H]2CCCN2C1=O", "target": "blaNDM-1", "test": "enzyme activity, inhibitor, absorbance", "IC50": "6.05 µM"}
{"Compound": "CN1CCCN(C(=O)c2ccc(S(=O)(=O)F)cc2)c2ccccc21", "target": "Uncharacterized hydrolase SAUSA300_2518", "test": "enzyme activity, inhibitor", "IC50": "> 50 µM"}
{"Compound": "CC[C@H](C)[C@@H]1NC(=O)[C@@H](CCCCN)NC(=O)[C@H](CC(=O)O)NC(=O)[C@H]2CCCN2C(=O)[C@@H](CCC(N)=O)NC(=O)[C@H](C(C)C)NC(=O)[C@@H]2CCCN2C(=O)[C@@H](CS)NC1=O", "target": "blaNDM-1", "test": "enzyme activity, inhibitor, absorbance", "IC50": "11.5 µM"}
{"Compound": "CCCCCCCCCCCCn1nnc(CC(=O)O)n1", "target": "lasR", "test": "reporter gene, antagonist", "test system": "Escherichia coli, JLD271 with LasR plasmid", "conditions": "with: OdDHL 2 nM", "IC50": "no inhibition"}
{"Compound": "CSCC[C@H](NC(=O)[C@@H](N)CCCNC(=N)N)C(=O)N[C@@H](CO)C(=O)N[C@@H](C)C(=O)N1CCC[C@H]1C(=O)N[C@@H](CO)C(=O)N[C@H](C(=O)NCC(=O)NCC(=O)N[C@H](C(=O)O)C(C)C)[C@@H](C)O", "target": "HLA class I histocompatibility antigen, A alpha chain, allele A*02:02 (Homo sapiens, UniProt P04439)", "test": "binding", "IC50": "29.4 µM"}
{"Compound": "Cc1ccc(N2CC3CC(C2)N3C)cc1C(=O)NC1(c2ccc3c4c(cccc24)C(=O)N3C)CC1", "target": "CYP2C9", "test": "enzyme activity, inhibitor", "IC50": "> 50 µM"}
{"Compound": "O=C(NCc1cc(Br)cc(Br)c1OC(=O)c1ccccc1[N+](=O)[O-])c1ccccc1Cl", "target": "lasR", "test": "reporter gene, antagonist", "test system": "Escherichia coli, JLD271 with LasR plasmid", "conditions": "with: OdDHL 2 nM", "IC50": "no inhibition"}
{"Compound": "CCCCCNc1ccc(C(=O)C=C(O)C(F)(F)C(F)(F)F)cn1", "target": "Formate-nitrite transporter", "test": "L-lactate transport, inhibitor, fluorescence", "test system": "yeast", "conditions": "pH 6.8, with: L-lactate 1 mM", "IC50": "0.032 ± 0.005 µM"}
{"Compound": "O=C(c1cc(Cc2n[nH]c(=O)c3ccccc23)ccc1F)N1CC(CNC2CC2)C1", "target": "Protein mono-ADP-ribosyltransferase PARP8 (Homo sapiens, UniProt Q8N3A8)", "test": "enzyme activity, inhibitor", "IC50": "> 10 µM"}
{"Compound": "CCN(N=Cc1cnc2ccc(Br)cn12)S(=O)(=O)c1cc([N+](=O)[O-])ccc1C", "target": "Phosphatidylinositol 4,5-bisphosphate 3-kinase catalytic subunit alpha isoform (PIK3CA, Homo sapiens, UniProt P42336, K776A)", "test": "enzyme activity, inhibitor", "IC50": "0.59 µM"}
{"Compound": "O=[N+]([O-])c1ccc(OP(=O)(O)Oc2ccc([N+](=O)[O-])cc2)cc1", "target": "Liver carboxylesterase 1 (CES1, Homo sapiens, UniProt P23141)", "test": "enzyme activity, inhibitor", "IC50": "0.23 µM"}
{"Compound": "CNC(=S)NCCCC[C@H](NC(=O)CCc1ccccc1)C(=O)N[C@@H](CCCNC(=N)N)C(=O)N[C@@H](CC1CCCCC1)C(=O)N[C@H](CCCCN)C(=O)N[C@@H](CC1CCCCC1)C(N)=O", "target": "NAD-dependent protein deacetylase sirtuin-2 (SIRT2, Homo sapiens, UniProt Q8IXJ6)", "test": "enzyme activity, inhibitor, fluorescence", "IC50": "0.44 µM"}
{"Compound": "N=C(N)NCCC[C@H](NC(=O)[C@H](CCCCNC(=O)c1cncc(OS(=O)(=O)F)c1)NS(=O)(=O)c1cccc(F)c1)C(=O)NC1CCC1", "target": "SIRT5", "test": "inhibitor, fluorogenic", "conditions": "0 h preincubation, non-tagged enzyme 150 nM, with: NAD+ 500 µM", "IC50": "> 200 µM"}
{"Compound": "CSCC[C@@H]1NC(=O)[C@H](Cc2ccc(O)cc2)NC(=O)[C@@H](NC(=O)[C@H](C)N)CSC(=O)[C@H](C(C)C)NC(=O)[C@H](Cc2ccccc2)NC1=O", "target": "Histidine kinase AgrC (Listeria monocytogenes, UniProt A8E0G3)", "test": "agr signalling", "IC50": "3.46 µM"}
{"Compound": "O=C(C=C(O)C(F)(F)C(F)(F)F)c1ccc(N2CCNCC2)nc1", "target": "Formate-nitrite transporter", "test": "L-lactate transport, inhibitor, fluorescence", "test system": "yeast", "conditions": "pH 6.8, with: L-lactate 1 mM", "IC50": "8.41 ± 1.88 µM"}
{"Compound": "Cc1ccc(CNC(=O)c2ccn3c(-c4ccc(C#N)cc4)cnc3c2)cn1", "target": "Cytochrome P450 2C19 (CYP2C19, Homo sapiens, UniProt P33261)", "test": "enzyme activity, inhibitor", "IC50": "> 10 µM"}
{"Compound": "Cc1nc(N2CCC(N(C)c3cc(C(=O)NCCN4CCCC4)cnn3)CC2)nc(C)c1CC(C)C", "target": "CYP2C9", "test": "enzyme activity, inhibitor", "IC50": "> 30 µM"}
{"Compound": "O=C(C=C(O)C(F)(F)C(F)(F)F)c1ccc(NCC(F)(F)F)nc1", "target": "Formate-nitrite transporter", "test": "L-lactate transport, inhibitor, fluorescence", "test system": "yeast", "conditions": "pH 6.8, with: L-lactate 1 mM", "IC50": "0.215 ± 0.039 µM"}
{"Compound": "CCCCCCCCCCCCCCCCCC(=O)NC[C@H]1CC[C@H](C(=O)N[C@@H](CCC(=O)NCCCOCCOCCOCCCNC(=O)COCC(=O)N[C@@H](Cc2ccc(O)cc2)C(=O)NC(C)(Cc2ccccc2)C(=O)N[C@@H](CC(C)C)C(=O)N[C@@H](CCCC)C(=O)N[C@@H](CCCNC(=N)N)C(=O)N2CCC[C@H]2C(=O)N[C@@H](CCCNC(=N)NC)C(=O)N[C@@H](CC(N)=O)C(N)=O)C(=O)O)CC1 (some centres unmarked)", "target": "Neuromedin-U receptor 1 (Mus musculus, UniProt O55040)", "test": "ligand displacement, radioligand", "IC50": "0.000468 µM"}
{"Compound": "CC12CCC3C4CCC(C#N)CC4CCC3C1CCC2O (centres unmarked)", "target": "Alpha-2A adrenergic receptor (ADRA2A, Homo sapiens, UniProt P08913)", "test": "antagonist", "IC50": "6.82 µM"}
{"note": "Repeated from above:"}
{"Compound": "C[C@H](NCc1ccc(-c2ccc(C(F)(F)F)cc2)cc1)C(N)=O", "target": "Amine oxidase [flavin-containing] A (MAOA, Homo sapiens, UniProt P21397)", "test": "enzyme activity, inhibitor, fluorescence", "IC50": "> 100 µM"}
{"Compound": "CCN(N=Cc1cnc2ccc(Br)cn12)S(=O)(=O)c1cc([N+](=O)[O-])ccc1C", "target": "Phosphatidylinositol 4,5-bisphosphate 3-kinase catalytic subunit alpha isoform (PIK3CA, Homo sapiens, UniProt P42336, K776A)", "test": "enzyme activity, inhibitor", "IC50": "0.59 µM"}
